Results from different studies.
Protocols differ between the studies behind these lines. ± gives the spread as reported.

Molecule = O=c1cc(-c2ccccc2)oc2cc(O)cc(O)c12; system = phosphate buffer; conditions = pH 6.8, added from DMSO stock; endpoint = precipitation concentration; value = > 400 µM
Molecule = Cc1cc(C)c2c(c1)[C@@H](N(Cc1cc(C(F)(F)F)cc(C(F)(F)F)c1)c1nnn(C)n1)CCCN2C[C@H]1CC[C@H](C(=O)O)CC1; assay = LC-MS/MS; system = human, plasma; conditions = oral, 600 mg once daily, steady state; endpoint = t1/2; value = 37.4 h
Molecule = CCCCOCCOc1ccc(-c2ccc3c(c2)/C=C(/C(=O)Nc2ccc([S@@+]([O-])Cc4cncn4CCC)cc2)CCCN3CC(C)C)cc1; system = human, moderate hepatic impairment; conditions = oral, 150 mg; endpoint = effective half-life; value = 25.4 h
Molecule = CC(C)=CCC[C@](C)(O[C@@H]1O[C@H](CO)[C@@H](O)[C@H](O)[C@H]1O)[C@H]1CC[C@]2(C)[C@@H]1[C@H](O)C[C@@H]1[C@@]3(C)CC[C@H](O[C@@H]4O[C@H](CO)[C@@H](O)[C@H](O)[C@H]4O[C@@H]4O[C@H](CO)[C@@H](O)[C@H](O)[C@H]4O)C(C)(C)[C@@H]3CC[C@]12C; system = Sprague Dawley rat, male, plasma; conditions = oral, 42 mg/kg, in white ginseng extract; endpoint = CL/F; value = 18.3 ± 5 mL/min/kg
Molecule = Cn1c(-c2ccc(C(N)=O)cc2F)nnc1C(C)(C)Oc1c(F)cc(Cl)cc1F; system = young non-Japanese subjects, plasma; conditions = oral, 20 mg single dose, day 1; endpoint = AUC(0-inf) range; value = 1710 to 4620 ng·h/mL
Molecule = O=C1N=C(N2CCOCC2)CN1c1ccc(Cl)cc1; system = beagle dog, both sexes, plasma; conditions = oral, 30 mg/kg, tablets, fed, day 5; endpoint = terminal half-life; value = 1.94 h
Molecule = CC[C@H](C)[C@H](NC(=O)[C@H](Cc1ccccc1)NC(=O)[C@H](CCC(=O)O)NC(=O)[C@H](CCCCNC(=O)COCCOCCNC(=O)COCCOCCNC(=O)CC[C@H](NC(=O)CCCCCCCCCCCCCCCCC(=O)O)C(=O)O)NC(=O)[C@H](C)NC(=O)[C@H](C)NC(=O)[C@H](CCC(N)=O)NC(=O)CNC(=O)[C@H](CCC(=O)O)NC(=O)[C@H](CC(C)C)NC(=O)[C@H](Cc1ccc(O)cc1)NC(=O)[C@H](CO)NC(=O)[C@H](CO)NC(=O)[C@@H](NC(=O)[C@H](CC(=O)O)NC(=O)[C@H](CO)NC(=O)[C@@H](NC(=O)[C@H](Cc1ccccc1)NC(=O)[C@@H](NC(=O)CNC(=O)[C@H](CCC(=O)O)NC(=O)C(C)(C)NC(=O)[C@@H](N)Cc1cnc[nH]1)[C@@H](C)O)[C@@H](C)O)C(C)C)C(=O)N[C@@H](C)C(=O)N[C@@H](Cc1c[nH]c2ccccc12)C(=O)N[C@@H](CC(C)C)C(=O)N[C@H](C(=O)N[C@@H](CCCNC(=N)N)C(=O)NCC(=O)N[C@@H](CCCNC(=N)N)C(=O)NCC(=O)O)C(C)C; system = healthy Japanese subjects, plasma; conditions = subcutaneous, once weekly; scale = baseline: 1.0 mg over 0.5 mg; endpoint = accumulation ratio; value = 1.05
Molecule = CN[C@H](CC(C)C)C(=O)N[C@H]1C(=O)N[C@@H](CC(N)=O)C(=O)N[C@H]2C(=O)N[C@H]3C(=O)N[C@H](C(=O)N[C@H](C(=O)O)c4cc(O)cc(O)c4-c4cc3ccc4O)[C@H](O)c3ccc(c(Cl)c3)Oc3cc2cc(c3O[C@@H]2O[C@H](CO)[C@@H](O)[C@H](O)[C@H]2O[C@H]2C[C@](C)(N)[C@H](O)[C@H](C)O2)Oc2ccc(cc2Cl)[C@H]1O; system = BALB/c mouse, serum; conditions = ip, dose not given; endpoint = serum total protein; value = 6 ± 0.6 g/dL
Molecule = C=CC[C@@H]1/C=C(\C)C[C@H](C)C[C@H](OC)[C@H]2O[C@@](O)(C(=O)C(=O)N3CCCC[C@H]3C(=O)O[C@H](/C(C)=C/[C@@H]3CC[C@@H](O)[C@H](OC)C3)[C@H](C)[C@@H](O)CC1=O)[C@H](C)C[C@@H]2OC; assay = mass spectrometry; system = kidney transplant recipients, high vs low BMI, whole blood; conditions = dose not given, 0 to 4 h; endpoint = dose-adjusted blood concentration; value = no effect
Molecule = CC(C)NC[C@@H](C(=O)N1CCN(c2ncnc3c2[C@H](C)C[C@H]3O)CC1)c1ccc(Cl)cc1; system = human, Moderate hepatic function, plasma; conditions = oral, 100 mg single dose, NCI classification, geometric mean; endpoint = apparent clearance; value = 97.1 L/h
Molecule = Cc1c2oc3c(C)ccc(C(=O)N[C@@H]4C(=O)N[C@H](C(C)C)C(=O)N5CCC[C@H]5C(=O)N(C)CC(=O)N(C)[C@@H](C(C)C)C(=O)O[C@@H]4C)c3nc-2c(C(=O)N[C@@H]2C(=O)N[C@H](C(C)C)C(=O)N3CCC[C@H]3C(=O)N(C)CC(=O)N(C)[C@@H](C(C)C)C(=O)O[C@@H]2C)c(N)c1=O; system = mouse, Abcc2−/− knockout, FVB background, kidney; conditions = intravenous, 0.5 mg/kg; endpoint = half-life; value = 3.2 h
Molecule = Nc1ccc(S(=O)(=O)Nc2ccnn2-c2ccccc2)cc1; assay = enzyme activity, inhibitor; system = human liver microsomes; conditions = 10 µM, together with: rosiglitazone 10 µM; endpoint = inhibition; value = 42%
Molecule = CNCc1ccc(-c2cc(-c3nc(-c4ccc(S(=O)(=O)C(C)C)cc4)cnc3N)on2)cc1; system = mouse BALB/c female, plasma; conditions = intravenous, 60 mg/kg, from AUC(0-inf); endpoint = CL; value = 28.3 mL/min/kg
Molecule = CON; system = human, whole blood on ice; conditions = 60 min before centrifugation; endpoint = blood concentration; value = 10.4 ng/mL
Molecule = CC(=O)Nc1ccc(O)cc1; system = Sprague Dawley rat, overdose; conditions = oral, 1725 mg/kg, 24 and 48 h, single dose; scale = baseline: saline control; endpoint = ALT and AST increase; value = > 5 fold
Molecule = CN(C)Cc1cc(OCCC[18F])ccc1Sc1ccccc1N; system = male Sprague-Dawley rats, PCA-treated, remainder of brain; conditions = intravenous, dose not given, 60 min; endpoint = tissue uptake; value = 0.19 ± 0.03 %ID/g
Molecule = acyl ghrelin (human); system = mouse, wild type, cerebellum; conditions = intravenous, 10 min; endpoint = brain/serum ratio; value = 8.09 µL/g
